Results from different studies.
Lines come from different studies, so protocols differ.
Target: Homeodomain-interacting protein kinase 4 (HIPK4, Homo sapiens, UniProt Q8NE63)

The inhibition of CN1CC[C@@H](COc2cnc(C#N)cc2-c2ccn3nc(NC(=O)C4CC4)cc3c2)C1 is reported as 3% (enzyme activity, inhibitor; 1 µM).
Cc1cnc2nc1Nc1cccc(c1)COC/C=C/COCc1cc(ccc1OCCN1CCOCC1)N2 has a remaining binding of 89% (binding; 0.1 µM).
For Cc1cccc(O[C@H]2CCC[C@@H](C(C)CNCc3ccncc3)C2)c1 (relative stereo), the inhibition was 1% (enzyme activity, inhibitor; 10 µM).
O=C(Cc1ccc(OCc2ccccc2)cc1)NC1(C(=O)O)CCN(C(=O)c2ccc(-c3cccc(Cl)c3)cc2)CC1 — result for “activity vs control”: 134% (enzyme activity, inhibitor; 10 µM).
With COc1c(Cl)cccc1Nc1c(-c2ccncc2C#C[C@@]2(C)CCCN2C(=O)/C=C/CN(C)C)[nH]c2c1C(=O)NCC2 the remaining binding was 97% (binding, competition with immobilised ligand; 3 µM).
COc1cc(Nc2nc(C)cc(-c3cnn4nc(OC)ccc34)n2)cc(C(F)(F)F)c1 gave a remaining activity of 92% (inhibitor; 1 µM; relative to: control).
For C=CC(=O)Nc1cccc(-c2cnc3[nH]cc(C(=O)NC(C)(C)C)c3n2)c1, the inhibition was 37% (kinase activity; 0.1 µM).
For CNC(=O)C[C@H](Cc1ccc(C#N)cc1)NC(=O)c1cc(-c2ccc(CN[C@H](C)c3ccc(C)cc3)o2)ccc1Cl, “activity vs control” read 109% (enzyme activity, inhibitor; 1 µM).
For COC(=O)[C@@]1(C)C=C(C(=O)Nc2cccc(C(=O)Nc3ccc(Nc4nccc(-c5cccnc5)n4)c(C)c3)c2)C(=O)CC1, the remaining activity was 94% (enzyme activity, inhibitor, radiometric; 1 µM).
With CNC(=O)C1CCN(c2cc(C)c(F)cc2NC(=O)c2ccc(-c3cc(O)ccc3C)c(C)c2)CC1 the remaining binding was 100% (binding, competition with immobilised ligand; 1 µM).
Cc1cc(NC(=O)[C@H](O)c2cc(F)cc(F)c2)ccc1-c1cnc(N)c(C(=O)NC(C)C)c1 gave a remaining binding of 77% (binding, competition with immobilised ligand; 1 µM).
CC(C)=CC1OC(C)(C)C2C=C3C(=O)C(Cl)=CC(O)C3C3C(O)C4OC4C(=O)C132 (centres unmarked) gave a remaining binding of 93% (cell-free assay, competition with immobilised ligand; 10 µM).
For CN1CCN(Cc2ccc(-c3ccc(CO[C@H]4CCC[C@@H]4NC(=O)c4cc(-c5cnn(C)c5)cnc4N)cc3)cc2)CC1, the inhibition was 7% (enzyme activity, inhibitor; 0.1 µM).
With NC(=O)C[C@H]1CCc2sc3ncnc(O[C@H]4CC[C@H](N5CCOCC5)CC4)c3c21 the inhibition was 4% (enzyme activity, inhibitor; 10 µM).
